Published values gathered from unrelated publications.
Compare with care: the assays were run in different laboratories. Several values in a cell are separate wells, animals, samples, runs or records. ± gives the spread as reported.
Tumor necrosis factor receptor superfamily member 9/Nectin-4: Tumor necrosis factor receptor superfamily member 9/Nectin-4 (Homo sapiens, UniProt Q07011+Q96NY8)
Sequence of UniProt Q07011 (whole entry, looked up): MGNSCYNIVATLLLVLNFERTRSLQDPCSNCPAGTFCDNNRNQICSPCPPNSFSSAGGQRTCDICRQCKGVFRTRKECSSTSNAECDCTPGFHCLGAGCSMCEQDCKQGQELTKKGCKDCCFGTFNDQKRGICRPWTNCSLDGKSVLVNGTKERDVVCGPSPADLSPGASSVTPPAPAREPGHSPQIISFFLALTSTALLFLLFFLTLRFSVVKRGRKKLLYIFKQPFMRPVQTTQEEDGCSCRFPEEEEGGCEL
Sequence of UniProt Q96NY8 (whole entry, looked up): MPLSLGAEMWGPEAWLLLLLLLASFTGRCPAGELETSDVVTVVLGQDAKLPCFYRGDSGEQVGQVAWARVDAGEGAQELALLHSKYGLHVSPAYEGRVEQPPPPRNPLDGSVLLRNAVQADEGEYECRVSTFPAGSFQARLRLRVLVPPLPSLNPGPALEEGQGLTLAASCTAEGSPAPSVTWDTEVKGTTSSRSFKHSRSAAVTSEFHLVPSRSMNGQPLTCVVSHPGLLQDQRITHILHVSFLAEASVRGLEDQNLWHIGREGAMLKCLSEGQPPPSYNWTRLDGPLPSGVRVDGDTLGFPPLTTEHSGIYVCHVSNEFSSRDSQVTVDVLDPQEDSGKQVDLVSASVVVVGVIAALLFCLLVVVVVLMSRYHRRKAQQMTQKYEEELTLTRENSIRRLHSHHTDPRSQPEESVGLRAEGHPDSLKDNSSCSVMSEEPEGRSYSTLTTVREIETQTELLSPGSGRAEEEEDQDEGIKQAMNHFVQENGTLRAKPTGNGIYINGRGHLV
T1: ssDNA, aptamer; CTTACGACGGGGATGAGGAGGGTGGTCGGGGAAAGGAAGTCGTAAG
Sequence of UniProt O75762 (whole entry, looked up): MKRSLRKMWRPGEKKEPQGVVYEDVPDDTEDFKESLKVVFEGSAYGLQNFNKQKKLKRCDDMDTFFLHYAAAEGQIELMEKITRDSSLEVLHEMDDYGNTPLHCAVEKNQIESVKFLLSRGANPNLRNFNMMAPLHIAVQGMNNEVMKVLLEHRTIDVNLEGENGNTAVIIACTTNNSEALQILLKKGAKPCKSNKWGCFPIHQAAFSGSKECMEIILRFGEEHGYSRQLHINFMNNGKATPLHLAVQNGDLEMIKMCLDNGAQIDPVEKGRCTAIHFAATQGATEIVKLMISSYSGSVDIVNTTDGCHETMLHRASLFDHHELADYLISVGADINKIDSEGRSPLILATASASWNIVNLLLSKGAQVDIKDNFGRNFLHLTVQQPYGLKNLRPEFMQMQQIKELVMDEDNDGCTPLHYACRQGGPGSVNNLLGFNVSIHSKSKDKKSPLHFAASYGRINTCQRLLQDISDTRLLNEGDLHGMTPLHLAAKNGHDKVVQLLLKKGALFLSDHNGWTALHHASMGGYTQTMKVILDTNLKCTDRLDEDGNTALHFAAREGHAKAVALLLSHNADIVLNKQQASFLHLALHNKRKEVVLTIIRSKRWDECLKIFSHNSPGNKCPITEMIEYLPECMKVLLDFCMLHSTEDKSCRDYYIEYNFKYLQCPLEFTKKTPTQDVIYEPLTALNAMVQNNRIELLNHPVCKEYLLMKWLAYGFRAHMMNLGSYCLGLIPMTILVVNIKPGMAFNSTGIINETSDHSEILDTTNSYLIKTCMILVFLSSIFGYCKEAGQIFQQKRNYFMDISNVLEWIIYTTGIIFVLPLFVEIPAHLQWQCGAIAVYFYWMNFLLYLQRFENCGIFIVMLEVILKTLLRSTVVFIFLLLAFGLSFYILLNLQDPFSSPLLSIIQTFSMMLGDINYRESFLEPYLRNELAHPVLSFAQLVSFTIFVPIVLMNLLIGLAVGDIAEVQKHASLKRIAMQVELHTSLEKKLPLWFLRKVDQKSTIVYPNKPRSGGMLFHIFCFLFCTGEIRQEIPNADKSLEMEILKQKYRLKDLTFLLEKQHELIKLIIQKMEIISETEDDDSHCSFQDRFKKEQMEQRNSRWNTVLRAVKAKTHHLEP
Sequence of UniProt P51575 (whole entry, unmodified, looked up): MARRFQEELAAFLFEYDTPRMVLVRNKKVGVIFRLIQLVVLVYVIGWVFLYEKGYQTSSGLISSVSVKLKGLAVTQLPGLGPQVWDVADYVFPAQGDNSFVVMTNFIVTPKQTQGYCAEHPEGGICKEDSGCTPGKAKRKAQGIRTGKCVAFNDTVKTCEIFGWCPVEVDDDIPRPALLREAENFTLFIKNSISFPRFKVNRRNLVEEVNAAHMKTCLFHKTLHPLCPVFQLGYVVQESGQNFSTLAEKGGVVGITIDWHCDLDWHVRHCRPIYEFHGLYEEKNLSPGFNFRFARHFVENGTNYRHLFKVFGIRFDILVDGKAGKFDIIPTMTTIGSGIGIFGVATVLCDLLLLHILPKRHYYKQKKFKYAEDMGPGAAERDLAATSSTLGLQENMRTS
Sequence of UniProt Q64663 (whole entry, unmodified, looked up): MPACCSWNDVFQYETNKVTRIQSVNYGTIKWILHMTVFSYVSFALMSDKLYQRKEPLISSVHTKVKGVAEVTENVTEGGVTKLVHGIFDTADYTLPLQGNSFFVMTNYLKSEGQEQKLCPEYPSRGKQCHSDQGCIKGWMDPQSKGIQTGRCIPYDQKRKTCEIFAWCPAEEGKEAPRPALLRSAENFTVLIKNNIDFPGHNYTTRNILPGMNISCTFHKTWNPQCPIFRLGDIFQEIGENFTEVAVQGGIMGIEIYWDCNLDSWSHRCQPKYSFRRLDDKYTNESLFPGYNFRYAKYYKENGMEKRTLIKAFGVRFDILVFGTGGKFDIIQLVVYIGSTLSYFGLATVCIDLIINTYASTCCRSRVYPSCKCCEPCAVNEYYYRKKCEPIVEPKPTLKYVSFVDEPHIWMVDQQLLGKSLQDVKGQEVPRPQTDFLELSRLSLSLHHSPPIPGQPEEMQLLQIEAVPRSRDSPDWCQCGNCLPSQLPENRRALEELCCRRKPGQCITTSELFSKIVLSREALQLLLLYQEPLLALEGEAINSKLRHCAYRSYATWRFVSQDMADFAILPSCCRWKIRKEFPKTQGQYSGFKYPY
Sequence of UniProt Q8NER1 (whole entry, looked up): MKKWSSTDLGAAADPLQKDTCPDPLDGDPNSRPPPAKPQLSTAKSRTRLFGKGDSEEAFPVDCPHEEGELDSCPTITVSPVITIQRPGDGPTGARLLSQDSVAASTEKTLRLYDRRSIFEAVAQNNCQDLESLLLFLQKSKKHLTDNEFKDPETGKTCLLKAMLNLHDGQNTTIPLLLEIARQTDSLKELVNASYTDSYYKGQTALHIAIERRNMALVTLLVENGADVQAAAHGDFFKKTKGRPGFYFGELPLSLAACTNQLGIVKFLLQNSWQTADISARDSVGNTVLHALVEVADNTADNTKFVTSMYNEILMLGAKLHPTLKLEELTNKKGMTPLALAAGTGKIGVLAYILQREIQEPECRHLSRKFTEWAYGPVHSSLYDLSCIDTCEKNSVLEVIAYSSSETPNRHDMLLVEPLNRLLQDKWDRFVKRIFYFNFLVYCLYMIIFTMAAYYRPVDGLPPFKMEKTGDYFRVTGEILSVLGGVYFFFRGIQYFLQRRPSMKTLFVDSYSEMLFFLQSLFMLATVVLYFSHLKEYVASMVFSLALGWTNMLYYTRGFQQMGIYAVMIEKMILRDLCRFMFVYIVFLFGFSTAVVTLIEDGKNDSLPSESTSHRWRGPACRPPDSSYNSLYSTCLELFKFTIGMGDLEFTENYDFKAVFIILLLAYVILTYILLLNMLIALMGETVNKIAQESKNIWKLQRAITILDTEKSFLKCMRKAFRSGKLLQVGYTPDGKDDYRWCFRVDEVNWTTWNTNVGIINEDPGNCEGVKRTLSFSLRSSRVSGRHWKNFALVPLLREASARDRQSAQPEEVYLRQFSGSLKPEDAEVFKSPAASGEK
Sequence of UniProt O76090 (whole entry, unmodified, looked up): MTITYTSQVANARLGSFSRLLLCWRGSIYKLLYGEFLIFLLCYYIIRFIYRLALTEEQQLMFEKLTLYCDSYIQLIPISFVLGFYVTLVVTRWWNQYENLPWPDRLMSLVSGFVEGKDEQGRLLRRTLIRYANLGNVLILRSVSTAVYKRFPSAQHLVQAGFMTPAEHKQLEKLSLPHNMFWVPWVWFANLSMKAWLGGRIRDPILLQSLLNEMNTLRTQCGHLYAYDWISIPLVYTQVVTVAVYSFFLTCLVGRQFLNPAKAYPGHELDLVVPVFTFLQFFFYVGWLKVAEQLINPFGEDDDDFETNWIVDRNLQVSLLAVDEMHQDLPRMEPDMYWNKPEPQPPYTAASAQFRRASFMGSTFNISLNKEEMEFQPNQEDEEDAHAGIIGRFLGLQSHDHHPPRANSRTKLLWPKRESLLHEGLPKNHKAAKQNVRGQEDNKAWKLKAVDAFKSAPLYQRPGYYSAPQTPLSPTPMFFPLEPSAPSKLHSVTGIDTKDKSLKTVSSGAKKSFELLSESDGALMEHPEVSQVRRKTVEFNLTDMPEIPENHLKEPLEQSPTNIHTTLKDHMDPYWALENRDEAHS
Sequence of UniProt Q9NYV8 (whole entry, unmodified, looked up): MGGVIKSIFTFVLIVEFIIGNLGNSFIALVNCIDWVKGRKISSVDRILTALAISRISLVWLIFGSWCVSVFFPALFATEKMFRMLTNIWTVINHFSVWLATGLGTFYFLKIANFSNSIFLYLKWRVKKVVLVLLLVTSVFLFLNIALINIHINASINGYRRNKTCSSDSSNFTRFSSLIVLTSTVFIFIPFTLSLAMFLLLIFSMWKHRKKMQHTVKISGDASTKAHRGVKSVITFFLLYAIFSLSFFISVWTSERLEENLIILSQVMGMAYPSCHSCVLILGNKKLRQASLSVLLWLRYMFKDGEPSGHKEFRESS
Sequence of UniProt Q07817 (whole entry, looked up): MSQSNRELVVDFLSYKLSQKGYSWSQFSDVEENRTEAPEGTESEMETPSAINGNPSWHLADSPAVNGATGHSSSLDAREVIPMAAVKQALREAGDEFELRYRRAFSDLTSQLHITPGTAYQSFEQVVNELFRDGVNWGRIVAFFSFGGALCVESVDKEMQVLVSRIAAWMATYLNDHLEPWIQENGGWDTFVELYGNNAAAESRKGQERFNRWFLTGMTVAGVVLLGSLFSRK
Sequence of UniProt Q9KCC6 (whole entry, unmodified, looked up): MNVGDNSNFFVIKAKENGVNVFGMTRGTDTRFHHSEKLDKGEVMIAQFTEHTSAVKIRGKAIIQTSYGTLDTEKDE

SMILES | target or system | assay | system | conditions | scale | endpoint | value
Nc1ncnc2c1ncn2[C@@H]1O[C@H](COP(=O)(O)OP(=O)(O)OP(=O)(O)O)[C@@H](O)[C@H]1O | P2X purinoceptor 7 (P2rx7, Rattus norvegicus, UniProt Q64663, I214A/Q143A) | ion current, agonist, two-electrode voltage clamp | Xenopus laevis oocytes | 100 µM | reference: highest concentration response | normalized current | 0.12 and 0.15 and 0.19
CCCC[C@@H]1NC(=O)[C@H](Cc2ccc(O)cc2)NC(=O)[C@@H]2CCCN2C(=O)[C@H](CC(=O)O)NC(=O)[C@H](C)NC(=O)[C@H](Cc2ccccc2)NC(=O)[C@@H]2CSCCC(=O)N3CN(CN(C3)C(=O)CCSC[C@@H](C(=O)N[C@@H](C)C(N)=O)NC1=O)C(=O)CCSC[C@H](NC(C)=O)C(=O)N[C@@H](CC(C)(C)C)C(=O)N1CCC[C@H]1C(=O)N[C@@H](CCC(=O)O)C(=O)N[C@H](CCCCNC(=O)CCOCCOCCOCCOCCOCCOCCOCCOCCOCCOCCOCCOCCn1cc(CCC(=O)NCCC(=O)N(C)CC(=O)N(C)CC(=O)N(C)CC(=O)N(C)CC(=O)N(C)CC(=O)N(C)CC(=O)N(C)CC(=O)N(C)CC(=O)N(C)CC(=O)N(C)CC(=O)N[C@H]3CSCCC(=O)N4CN5CN(C4)C(=O)CCSC[C@H](NC(=O)[C@@H](CC(=O)O)NC(=O)[C@H](Cc4cccc6ccccc46)NC(=O)[C@@H]4CCCN4C3=O)C(=O)N[C@@H](CCSC)C(=O)N[C@@H](CCCCNC(=N)N)C(=O)N[C@@H](CC(=O)O)C(=O)N[C@@H](Cc3c[nH]c4ccccc34)C(=O)N[C@@H](CO)C(=O)N[C@@H]([C@@H](C)O)C(=O)N3CCC[C@H]3C(=O)N3C[C@H](O)C[C@H]3C(=O)N[C@@H](Cc3c[nH]c4ccccc34)C(=O)N[C@H](C(N)=O)CSCCC5=O)nn1)C(=O)N1CCC[C@H]1C(=O)N[C@@H](Cc1ccc(O)cc1)C(=O)N2 | Tumor necrosis factor receptor superfamily member 9/Nectin-4 | reporter gene, agonist | HT-1376 coculture with reporter cells |  | reference: background | Emax | 44 fold
C#CCCOC(=O)[C@]1(C)C=C(C(=O)OC(C)(C)C)C(=O)CC1 | Mitogen-activated protein kinase 8 (MAPK8, Homo sapiens, UniProt P45983) | D-peptide binding, inhibitor, FP peptide displacement |  | 200 µM | lower is stronger displacement | fraction bound | 0.0288
N[C@@H](Cc1c[nH]c2ccccc12)C(=O)O | Transcription attenuation protein MtrB (mtrB, Halalkalibacterium halodurans, UniProt Q9KCC6) | isothermal titration calorimetry |  | 25 °C, site 1 two-site model |  | ΔH | -49.1 ± 3.2 kcal/mol
NC(=O)C[C@H](N)C(=O)O | Methyl-accepting chemotaxis protein, ligand-binding domain (Pectobacterium atrosepticum, UniProt Q6D6I9) | binding, thermal shift |  | ligand-binding domain |  | ΔTm | binds
CC1(C)CCC(CN2CCN(c3ccc(C(=O)NS(=O)(=O)c4ccc(NCC5CCOCC5)c([N+](=O)[O-])c4)c(Oc4cnc5[nH]ccc5c4)c3)CC2)=C(c2ccc(Cl)cc2)C1 | Bcl-2-like protein 1 (BCL2L1, Homo sapiens, UniProt Q07817) | binding |  |  |  | Hill slope | -3.16
CC[C@@H]1[C@H](F)C(=O)N[C@@H]1COc1nccc2cc(C(N)=O)c(OC)cc12 | Serine/threonine-protein kinase PRP4 homolog (PRPF4B, Homo sapiens, UniProt Q13523) | ATP-site probe binding, ActivX profiling | THP-1 cell lysate | 0.04 mM, Lys1 site |  | inhibition | 7.1%
CC(=O)Nc1c(I)c(NC(C)=O)c(I)c(C(=O)O)c1I | human iPSC-derived cardiomyocytes | MyBP-C/MYH ratio, plate-normalised SD score |  | concentration not given, primary screen | direction not given | activity score | 3
CC(=O)N[C@H](C(=O)N[C@@H](CC(N)=O)C(=O)N[C@@H](CCCCN)C(=O)N1CCC[C@H]1C(=O)N[C@@H](CC(C)C)C(=O)N1CCC[C@H]1C(=O)N1CCC[C@H]1C(=O)N[C@@H](CC(C)C)C(=O)N1CCC[C@H]1C(=O)N[C@H](C(=O)N[C@@H](C)C(N)=O)C(C)C)C(C)C | High osmolarity signaling protein SHO1, SH3 domain (SHO1, Saccharomyces cerevisiae, UniProt P40073) | ligand binding, FTIR spectroscopy, measured: asymmetric stretch band A |  | pH 7.0, SHO1 complex, together with: 4 mM peptide |  | peak area | 23 ± 4%
Nc1ncnc2c1ncn2[C@@H]1O[C@H](COP(=O)(O)OP(=O)(O)OP(=O)(O)O)[C@@H](O)[C@H]1O | P2X purinoceptor 2 (P2RX2, Homo sapiens, UniProt Q9UBL9, D148K/E146K/L150K) | ion current, agonist, two-electrode voltage clamp | Xenopus oocytes | concentration not given |  | peak current | 3570 nA
Nc1ncnc2c1ncn2[C@@H]1O[C@H](COP(=O)(O)OP(=O)(O)O)[C@@H](O)[C@H]1O | GUK1 (Homo sapiens, UniProt Q16774) | binding, isothermal titration calorimetry |  | molar ratio 2.83, fitted curve |  | ΔH | -0.181 kcal/mol
Nc1ncnc2c1ncn2[C@@H]1O[C@H](COP(=O)(O)CP(=O)(O)OP(=O)(O)O)[C@@H](O)[C@H]1O | P2X purinoceptor 1 (P2RX1, Homo sapiens, UniProt P51575, S286A) | calcium influx |  | 316 nM | reference: ionomycin response | calcium influx | 95.8% and 85% and 100%
O=C1CCC(N2Cc3cc(NC(=O)c4cn5ccccc5n4)ccc3C2=O)C(=O)N1 (stereo not shown) | Cereblon/Casein kinase I alpha (CSNK1A1/CRBN, Homo sapiens, UniProt P48729+Q96SW2) | degrader, Western blot | MOLT-4 | 1 µM |  | time to efficient degradation | ≤ 30 min
O=c1nc(SCc2cc(F)cc(C(F)(F)F)c2)nc(SCc2ccc3nc(Cl)ccc3c2)[nH]1 | DNA topoisomerase 2-alpha (TOP2A, Homo sapiens, UniProt P11388) | ATPase activity |  | 125 µM, together with: ATP 1 mM |  | ATP hydrolysis rate | 2.88 µM/min and 0.498 µM/min
COc1ccc2c(c1)C(=O)N(CCN1CCN(c3ccccc3OC)CC1)C2 | 5-hydroxytryptamine receptor 5A (HTR5A, Homo sapiens, UniProt P47898) | radioligand binding |  | concentration not given, together with: [3H]LSD |  | inhibition | 65.8%
O=c1cc(-c2ccc([N+](=O)[O-])cc2)[nH]c2c(-c3ccc(Cl)cc3)c(Cc3ccccc3)nn12 | Sodium channel protein type 8 subunit alpha, C-terminal domain (SCN8A, Homo sapiens, UniProt Q9UQD0) | binding, protein thermal shift |  | 25 µM |  | delta Tm | 3.5 °C

SMILES | target or system | assay | system | conditions | scale | endpoint | value
O=C(O)c1ccc(Nc2ncc3c(n2)-c2ccc(Cl)cc2C(c2c(F)cccc2F)=NC3)cc1 | human HIPK3(h) | kinase activity |  | 1 µM |  | remaining activity | 111%
Cn1cc(-c2ccc(-c3cncc(Cl)c3N3CCC4(CCNC4=O)CC3)cc2)cn1 | COLO 205 | gene expression, microarray, measured: TCP11L2 mRNA |  | concentration not given, 6 h | reference: untreated cells | log2 fold change | 1.15
CCCC[C@@H]1NC(=O)[C@H](Cc2ccc(O)cc2)NC(=O)[C@@H]2CCCN2C(=O)[C@H](CC(=O)O)NC(=O)[C@H](C)NC(=O)[C@H](Cc2ccccc2)NC(=O)[C@@H]2CSCCC(=O)N3CN(CN(C3)C(=O)CCSC[C@@H](C(=O)N[C@@H](C)C(N)=O)NC1=O)C(=O)CCSC[C@H](NC(C)=O)C(=O)N[C@@H](CC(C)(C)C)C(=O)N1CCC[C@H]1C(=O)N[C@@H](CCC(=O)O)C(=O)N[C@H](CCCCNC(=O)CCc1cn(CCOCCOCCOCCOCCOCCC(=O)N[C@H]3CSCCC(=O)N4CN5CN(C4)C(=O)CCSC[C@H](NC(=O)[C@@H](CC(=O)O)NC(=O)[C@H](Cc4cccc6ccccc46)NC(=O)[C@@H]4CCCN4C3=O)C(=O)N[C@@H](CCSC)C(=O)N[C@@H](CCCCNC(=N)N)C(=O)N[C@@H](CC(=O)O)C(=O)N[C@@H](Cc3c[nH]c4ccccc34)C(=O)N[C@@H](CO)C(=O)N[C@@H]([C@@H](C)O)C(=O)N3CCC[C@H]3C(=O)N3C[C@H](O)C[C@H]3C(=O)N[C@@H](Cc3c[nH]c4ccccc34)C(=O)N[C@H](C(N)=O)CSCCC5=O)nn1)C(=O)N1CCC[C@H]1C(=O)N[C@@H](Cc1ccc(O)cc1)C(=O)N2 | Tumor necrosis factor receptor superfamily member 9/Nectin-4 | reporter gene, agonist | HT-1376 coculture with reporter cells |  | reference: background | Emax | 31 fold
O=C(O)c1ccccc1Nc1cccc(C(F)(F)F)c1 | Taste receptor type 2 member 14 (TAS2R14, Homo sapiens, UniProt Q9NYV8) | G-protein dissociation, TRUPATH gustducin BRET |  | 100 nM, wild-type receptor, unit not given | reference: vehicle | ΔBRET | 0.00116 and 0.0103 and 0.0376 and 0.00716 and 0.0263 and 0.00575 and 0.0225
O=C1Cc2cc(CCN3CCN(c4nsc5ccccc45)CC3)c(Cl)cc2N1 | human iPSC-derived cardiomyocytes | MyBP-C/MYH ratio, plate-normalised SD score |  | concentration not given, primary screen | direction not given | activity score | 3.3
Nc1ncnc2c1ncn2[C@@H]1O[C@H](COP(=O)(O)O)[C@@H](O)[C@H]1O | T1, ssDNA, aptamer | ITC |  |  |  | Kd | 260 µM
COc1cc(CNC(=O)CCCC/C=C/C(C)C)ccc1O | Transient receptor potential cation channel subfamily V member 1 (TRPV1, Homo sapiens, UniProt Q8NER1) | channel activation, FLIPR calcium | HEK293T | 0.741 µM | higher = more activation | calcium response | 21.6 a.u. and 21.1 a.u. and 22.2 a.u. and 17 a.u.
COc1ccc(Cc2nnc(NS(=O)(=O)c3ccc(OC)cc3)s2)cc1 | Glutathione hydrolase 1 proenzyme, without transmembrane domain (Homo sapiens, UniProt P19440) | GSH hydrolysis |  | 37 °C, no inhibition up to 250 µM, together with: GSH 5-20 µM |  | Kii | > 250 µM
[Ca] | Transient receptor potential cation channel subfamily A member 1 (TRPA1, Homo sapiens, UniProt O75762) | ion current, two-electrode voltage clamp | Xenopus oocytes | concentration not given, -80 mV, together with: extracellular Ca2+ | reference: current before Ca2+ addition | potentiation | 13.8 fold change and 29.1 fold change and 20.9 fold change and 6.31 fold change and 23.6 fold change
Oc1ccc(/C=C/c2cc(O)cc(O)c2)cc1 | O-methyltransferase (Sorghum bicolor, UniProt A0A1B6PFV1) |  |  | concentration not given, together with: SAH+ |  | ΔG of binding | -9.15 kcal/mol
Nc1ccc(C(=O)O)cc1 | BEST1, with wild-type BEST1 (Homo sapiens, UniProt O76090, R218H) | ion current, whole-cell patch clamp | HEK293 co-expressing mutant and wild-type | concentration not given, voltage 40 mV |  | current density | 15.8 pA/pF and 10.8 pA/pF and 7.94 pA/pF and 2.14 pA/pF and 12.9 pA/pF and 6.94 pA/pF and 4.19 pA/pF and 3.04 pA/pF
c1coc(-c2n[nH]cc2-c2ccnc3ccccc23)c1 | Mitosis inhibitor protein kinase SWE1 (SWE1, Candida albicans, UniProt Q5AP97) | kinase binding, MIB/MS competition | Candida albicans lysate | 10 µM | reference: DMSO, negative = stronger binding | log2 fold change | 0.09
NCCS(=O)(=O)O | Sodium- and chloride-dependent taurine transporter (SLC6A6, Homo sapiens, UniProt P31641, S402A) | binding, microscale thermophoresis |  | 30.5 nM, room temperature, together with: 50 nM labelled protein | higher = more binding | normalised MST signal | -0.00154
c1ccc2c(c1)Nc1ccccc1O2 | Discoidin domain-containing receptor 2 (DDR2, Homo sapiens, UniProt Q16832) | collagen peptide binding, inhibitor, solid-phase binding |  | concentration not given, DDR2 ECD 25 nM |  | activity | inactive
Nc1nc2c(ncn2[C@@H]2O[C@H](COP(=O)(O)OP(=O)(O)OP(=O)(O)O)[C@@H](O)[C@H]2O)c(=O)[nH]1 | DNA-directed RNA polymerase subunit beta' / DNA-directed RNA polymerase subunit beta (rpoC/rpoB, Escherichia coli, UniProt P0A8T7+P0A8V2) | RNA extension, rapid quench-flow | Escherichia coli, elongation complex, 6-MI template | 200 µM, 25 °C, slow complex fraction |  | nucleotide addition rate | 1.4 ± 0.4 s⁻¹

A few entries again:
SMILES | target or system | assay | system | conditions | scale | endpoint | value
NC(=O)C[C@H](N)C(=O)O | Methyl-accepting chemotaxis protein, ligand-binding domain (Pectobacterium atrosepticum, UniProt Q6D6I9) | binding, thermal shift |  | ligand-binding domain |  | ΔTm | binds
O=C(O)c1ccc(Nc2ncc3c(n2)-c2ccc(Cl)cc2C(c2c(F)cccc2F)=NC3)cc1 | human HIPK3(h) | kinase activity |  | 1 µM |  | remaining activity | 111%
